Published values collected from several papers.
Numbers after ± are the reported error.

| SMILES | assay | system | conditions | scale | quantity | value |
| --- | --- | --- | --- | --- | --- | --- |
| Cl.[2H]C([2H])([2H])CC(=O)c1cnc(NC(=O)C2CC2)cc1Nc1cccc(-c2ncn(C([2H])([2H])[2H])n2)c1OC | geometric mean | human | oral, 17.5 mg single dose, fasted, liquid | – | AUC(0-t) | 1900 ng·h/mL |
| CO[C@H]1C[C@@H]2CC[C@@H](C)[C@@](O)(O2)C(=O)C(=O)N2CCCC[C@H]2C(=O)O[C@H]([C@H](C)C[C@@H]2CC[C@@H](OC(=O)NCCOCCOCCOCCOCCOCCOCCOCCOCCC(=O)N3CCc4cc(Cn5nc(-c6ccc7oc(N)nc7c6)c6c(N)ncnc65)ccc4C3)[C@H](OC)C2)C[C@@H](O)[C@H](C)/C=C(\C)[C@@H](O)[C@@H](OC)C(=O)[C@H](C)C[C@H](C)/C=C/C=C/C=C/1C | – | human, plasma | intravenous, 6 mg, cycle 1 day 1, arithmetic mean | – | AUC(0-t) | 243 ng·h/mL |
| CC(C)=CCC/C(C)=C/CC/C(C)=C/CC[C@@](C)(O)CCC1=C(C)C(=O)C(C)=C(C)C1=O | – | healthy human, plasma | oral, 400 mg | – | AUC(0-t) geometric mean | 3130 ng·h/mL |
| CCNCc1cc(Nc2ccnc3cc(Cl)ccc23)ccc1O | – | humans, both sexes, plasma | oral, outlier included | reference: fixed over non-fixed combination | AUC(0-t) ratio | 0.71 |
| Cc1cc(C)c(CNC(=O)c2cc(Cl)c3c(c2C)O[C@@](C)([C@H]2CC[C@H](N(C)C)CC2)O3)c(=O)[nH]1 | geometric LS mean | healthy male humans, plasma | oral, 25 mg, alone, fluconazole DDI study reference | – | AUC(0-t) | 563 ng·h/mL |
| C=CCn1c(=O)c2cnc(Nc3ccc(N4CCN(C)CC4)cc3)nc2n1-c1cccc(C(C)(C)O)n1 | – | human | oral, 125 mg twice daily, monotherapy lead-in, -5 days | geometric mean | AUC(0-t) | 4.18 µM·h |
| CN(CC#N)C(=O)C[C@H](Nc1nc2ccccc2[nH]1)c1cccc(C(F)(F)F)c1 | – | human | intravenous infusion, 6 mg/kg, 1 mg/mL formulation | – | AUC(0-t) | 25500 ± 5100 ng·h/mL |
| NC1(C(=O)N[C@@H](CCO)c2ccc(Cl)cc2)CCN(c2nc[nH]c3nccc2-3)CC1 | – | human patients, plasma | dose not given, cohort 160/480, cycle 2, geometric mean | – | AUC(0-t) | 2340 ng·h/mL |
| CCCCC1=NC2(CCCC2)C(=O)N1Cc1ccc(-c2ccccc2S(=O)(=O)Nc2noc(C)c2C)c(COCC)c1 | – | healthy humans, plasma | oral, 800 mg | reference: fed over fasted | AUC(0-t) ratio | 1.22 |
| C=CC(=O)N(C)CCOc1c(N)ncnc1-c1cc(F)cc(NC(=O)c2ccc(C3CC3)cc2F)c1C | – | human, whole blood | oral, 400 mg, single ascending dose | – | AUC(0-t) | 1060 ng·h/mL |
| COc1ncc(-c2nc3c(n2C(C)C)[C@H](c2ccc(Cl)cc2)N(c2cc(Cl)cn(C)c2=O)C3=O)c(OC)n1 | – | human patients, plasma | oral, 20 mg, 0-24 h, low-dose arm, cycle 1 day 1 | – | AUC(0-t) geometric mean | 1960 ng·h/mL |
| Cc1cc(Nc2ncnc3ccc(NC4=NC(C)(CO)CO4)cc23)ccc1Oc1ccn2ncnc2c1 (stereo not drawn) | – | human, plasma | tucatinib, day 10, added: rifampin once daily | – | AUC(0-t) (arithmetic mean) | 350 ng·h/mL |

Some of these lines once more:
| SMILES | assay | system | conditions | scale | quantity | value |
| --- | --- | --- | --- | --- | --- | --- |
| Cc1cc(C)c(CNC(=O)c2cc(Cl)c3c(c2C)O[C@@](C)([C@H]2CC[C@H](N(C)C)CC2)O3)c(=O)[nH]1 | geometric LS mean | healthy male humans, plasma | oral, 25 mg, alone, fluconazole DDI study reference | – | AUC(0-t) | 563 ng·h/mL |
| C=CCn1c(=O)c2cnc(Nc3ccc(N4CCN(C)CC4)cc3)nc2n1-c1cccc(C(C)(C)O)n1 | – | human | oral, 125 mg twice daily, monotherapy lead-in, -5 days | geometric mean | AUC(0-t) | 4.18 µM·h |
